Experimental data of several laboratories.
Numbered parts are unrelated; each lists some results of a single study.
UniProt Q9P286, sequence (whole entry, looked up): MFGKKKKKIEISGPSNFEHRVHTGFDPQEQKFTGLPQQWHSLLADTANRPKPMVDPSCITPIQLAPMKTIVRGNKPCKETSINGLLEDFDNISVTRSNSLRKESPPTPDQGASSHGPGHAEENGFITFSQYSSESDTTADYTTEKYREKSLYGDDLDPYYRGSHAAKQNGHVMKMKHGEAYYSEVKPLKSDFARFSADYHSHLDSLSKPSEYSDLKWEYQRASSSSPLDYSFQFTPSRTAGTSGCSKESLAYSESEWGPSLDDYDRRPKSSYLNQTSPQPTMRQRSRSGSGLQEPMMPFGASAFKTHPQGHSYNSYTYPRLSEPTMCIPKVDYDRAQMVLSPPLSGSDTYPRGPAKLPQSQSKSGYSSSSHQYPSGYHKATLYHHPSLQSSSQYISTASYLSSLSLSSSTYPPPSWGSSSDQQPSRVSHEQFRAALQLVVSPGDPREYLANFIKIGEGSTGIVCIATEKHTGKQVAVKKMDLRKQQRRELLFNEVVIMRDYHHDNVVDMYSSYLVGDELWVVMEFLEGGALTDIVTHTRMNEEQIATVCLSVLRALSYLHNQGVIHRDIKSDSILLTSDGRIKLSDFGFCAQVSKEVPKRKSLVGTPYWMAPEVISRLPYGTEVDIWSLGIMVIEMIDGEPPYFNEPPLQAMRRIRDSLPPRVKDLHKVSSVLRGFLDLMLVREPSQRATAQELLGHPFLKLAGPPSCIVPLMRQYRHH
UniProt P10721, sequence (whole entry, unmodified, looked up): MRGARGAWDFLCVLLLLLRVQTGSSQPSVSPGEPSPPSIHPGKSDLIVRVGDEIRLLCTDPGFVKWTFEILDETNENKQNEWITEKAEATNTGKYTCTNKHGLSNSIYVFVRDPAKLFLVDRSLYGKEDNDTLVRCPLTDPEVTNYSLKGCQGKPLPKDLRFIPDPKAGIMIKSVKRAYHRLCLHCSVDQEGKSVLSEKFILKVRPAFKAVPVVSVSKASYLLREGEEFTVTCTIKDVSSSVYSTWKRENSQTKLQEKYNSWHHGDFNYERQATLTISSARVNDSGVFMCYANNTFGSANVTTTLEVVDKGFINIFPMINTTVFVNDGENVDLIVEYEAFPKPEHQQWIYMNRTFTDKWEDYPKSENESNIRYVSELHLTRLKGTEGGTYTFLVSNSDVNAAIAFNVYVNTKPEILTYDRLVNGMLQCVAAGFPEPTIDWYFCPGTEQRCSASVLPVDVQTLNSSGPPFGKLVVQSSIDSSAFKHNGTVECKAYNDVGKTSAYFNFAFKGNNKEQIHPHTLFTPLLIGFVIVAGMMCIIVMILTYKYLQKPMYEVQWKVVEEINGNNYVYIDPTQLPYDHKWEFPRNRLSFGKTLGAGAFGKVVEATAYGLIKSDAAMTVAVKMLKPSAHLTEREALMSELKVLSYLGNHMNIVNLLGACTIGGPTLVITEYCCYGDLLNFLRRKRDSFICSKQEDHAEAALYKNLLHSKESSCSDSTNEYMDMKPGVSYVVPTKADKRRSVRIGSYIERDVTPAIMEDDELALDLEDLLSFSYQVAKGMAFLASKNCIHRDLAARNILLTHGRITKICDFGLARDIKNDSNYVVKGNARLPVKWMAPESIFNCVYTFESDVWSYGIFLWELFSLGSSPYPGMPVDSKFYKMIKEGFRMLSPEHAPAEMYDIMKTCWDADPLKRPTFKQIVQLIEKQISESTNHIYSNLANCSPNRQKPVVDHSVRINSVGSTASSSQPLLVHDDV
UniProt Q13523, sequence (whole entry, looked up): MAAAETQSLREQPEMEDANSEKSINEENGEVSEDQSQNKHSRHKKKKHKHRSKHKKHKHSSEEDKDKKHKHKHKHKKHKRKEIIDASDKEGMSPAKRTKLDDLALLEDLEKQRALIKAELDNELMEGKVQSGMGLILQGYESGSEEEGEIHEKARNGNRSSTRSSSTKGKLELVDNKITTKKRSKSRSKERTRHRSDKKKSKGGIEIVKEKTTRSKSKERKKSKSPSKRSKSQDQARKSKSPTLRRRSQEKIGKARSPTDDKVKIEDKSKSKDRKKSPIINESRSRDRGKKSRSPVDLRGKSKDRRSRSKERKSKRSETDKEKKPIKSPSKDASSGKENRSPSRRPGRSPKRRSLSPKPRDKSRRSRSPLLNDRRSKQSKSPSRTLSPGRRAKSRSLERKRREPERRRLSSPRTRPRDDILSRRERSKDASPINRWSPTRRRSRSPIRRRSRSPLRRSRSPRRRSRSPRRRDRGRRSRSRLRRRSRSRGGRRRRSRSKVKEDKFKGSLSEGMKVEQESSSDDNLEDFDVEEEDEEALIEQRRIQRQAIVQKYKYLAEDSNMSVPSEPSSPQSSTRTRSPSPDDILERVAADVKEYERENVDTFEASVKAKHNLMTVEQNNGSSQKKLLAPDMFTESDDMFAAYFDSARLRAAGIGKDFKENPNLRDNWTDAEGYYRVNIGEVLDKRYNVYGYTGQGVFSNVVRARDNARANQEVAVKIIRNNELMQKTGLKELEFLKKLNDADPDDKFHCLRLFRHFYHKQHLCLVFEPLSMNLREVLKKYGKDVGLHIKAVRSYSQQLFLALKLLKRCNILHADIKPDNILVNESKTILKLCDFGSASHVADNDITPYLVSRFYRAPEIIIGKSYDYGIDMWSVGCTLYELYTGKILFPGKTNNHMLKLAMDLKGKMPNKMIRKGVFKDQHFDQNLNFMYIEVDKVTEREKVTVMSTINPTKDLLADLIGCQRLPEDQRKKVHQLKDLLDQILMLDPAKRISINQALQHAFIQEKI
UniProt P23458, sequence (whole entry, looked up): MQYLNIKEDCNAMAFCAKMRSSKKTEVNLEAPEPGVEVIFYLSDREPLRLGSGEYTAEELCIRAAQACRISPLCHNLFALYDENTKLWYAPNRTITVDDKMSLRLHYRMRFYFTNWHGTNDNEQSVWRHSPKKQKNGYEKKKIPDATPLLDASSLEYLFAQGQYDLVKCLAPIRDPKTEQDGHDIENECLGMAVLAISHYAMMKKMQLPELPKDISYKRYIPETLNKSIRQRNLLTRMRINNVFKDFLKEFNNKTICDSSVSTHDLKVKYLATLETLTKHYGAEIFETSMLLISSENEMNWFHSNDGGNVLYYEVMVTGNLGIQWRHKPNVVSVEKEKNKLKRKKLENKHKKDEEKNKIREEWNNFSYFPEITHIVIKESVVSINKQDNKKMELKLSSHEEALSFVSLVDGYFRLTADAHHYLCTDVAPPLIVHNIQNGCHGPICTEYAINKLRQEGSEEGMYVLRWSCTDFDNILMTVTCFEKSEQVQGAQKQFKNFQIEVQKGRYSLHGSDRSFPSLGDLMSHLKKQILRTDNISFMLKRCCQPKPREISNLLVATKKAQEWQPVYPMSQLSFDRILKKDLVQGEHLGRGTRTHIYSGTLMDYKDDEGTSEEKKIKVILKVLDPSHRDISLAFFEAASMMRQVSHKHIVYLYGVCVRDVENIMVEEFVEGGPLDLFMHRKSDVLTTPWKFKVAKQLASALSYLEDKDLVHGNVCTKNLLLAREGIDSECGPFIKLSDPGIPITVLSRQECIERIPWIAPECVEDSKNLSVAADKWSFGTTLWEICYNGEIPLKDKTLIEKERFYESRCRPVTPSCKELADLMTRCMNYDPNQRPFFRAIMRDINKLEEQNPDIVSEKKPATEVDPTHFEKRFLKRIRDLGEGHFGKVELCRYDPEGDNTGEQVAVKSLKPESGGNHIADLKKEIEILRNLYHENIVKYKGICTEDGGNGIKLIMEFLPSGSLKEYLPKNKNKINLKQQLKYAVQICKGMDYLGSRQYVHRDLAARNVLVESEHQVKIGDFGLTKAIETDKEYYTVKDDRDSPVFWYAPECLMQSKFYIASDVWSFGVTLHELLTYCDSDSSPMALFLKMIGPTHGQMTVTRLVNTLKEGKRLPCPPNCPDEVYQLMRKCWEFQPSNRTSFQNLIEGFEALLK
UniProt P49674, sequence (whole entry, looked up): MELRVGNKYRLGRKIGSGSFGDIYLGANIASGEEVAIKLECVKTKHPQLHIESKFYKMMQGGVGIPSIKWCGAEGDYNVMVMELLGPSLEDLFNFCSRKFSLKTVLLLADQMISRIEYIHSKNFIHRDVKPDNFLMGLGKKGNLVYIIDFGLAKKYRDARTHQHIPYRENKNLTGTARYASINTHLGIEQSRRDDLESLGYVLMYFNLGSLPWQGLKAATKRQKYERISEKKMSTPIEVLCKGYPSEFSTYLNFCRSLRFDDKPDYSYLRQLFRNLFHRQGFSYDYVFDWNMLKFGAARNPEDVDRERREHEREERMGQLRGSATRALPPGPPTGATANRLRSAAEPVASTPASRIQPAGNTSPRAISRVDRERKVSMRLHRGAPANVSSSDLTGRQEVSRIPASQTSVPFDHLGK
UniProt Q00535, sequence (whole entry, looked up): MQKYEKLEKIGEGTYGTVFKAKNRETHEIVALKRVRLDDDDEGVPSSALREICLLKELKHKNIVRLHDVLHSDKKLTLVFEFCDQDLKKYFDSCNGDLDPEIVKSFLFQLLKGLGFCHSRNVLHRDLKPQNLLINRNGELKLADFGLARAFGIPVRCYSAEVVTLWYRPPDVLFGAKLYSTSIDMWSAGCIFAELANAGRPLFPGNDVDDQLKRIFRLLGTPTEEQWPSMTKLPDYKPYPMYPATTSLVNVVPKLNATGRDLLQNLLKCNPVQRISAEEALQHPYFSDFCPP

Set 1 — method: RNA Bind-n-Seq; molecule type: RNA; matrix: in vitro; tested at: not given; setting: 4-mer, random 30-nt RNA, single round; added: RocA, ADP, phosphate; baseline: input library; reading: higher = stronger binding
Target: ATP-dependent RNA helicase DDX3X, helicase core (DDX3X, Homo sapiens, UniProt O00571, residues 132-607)
UniProt O00571, sequence (132-607, looked up): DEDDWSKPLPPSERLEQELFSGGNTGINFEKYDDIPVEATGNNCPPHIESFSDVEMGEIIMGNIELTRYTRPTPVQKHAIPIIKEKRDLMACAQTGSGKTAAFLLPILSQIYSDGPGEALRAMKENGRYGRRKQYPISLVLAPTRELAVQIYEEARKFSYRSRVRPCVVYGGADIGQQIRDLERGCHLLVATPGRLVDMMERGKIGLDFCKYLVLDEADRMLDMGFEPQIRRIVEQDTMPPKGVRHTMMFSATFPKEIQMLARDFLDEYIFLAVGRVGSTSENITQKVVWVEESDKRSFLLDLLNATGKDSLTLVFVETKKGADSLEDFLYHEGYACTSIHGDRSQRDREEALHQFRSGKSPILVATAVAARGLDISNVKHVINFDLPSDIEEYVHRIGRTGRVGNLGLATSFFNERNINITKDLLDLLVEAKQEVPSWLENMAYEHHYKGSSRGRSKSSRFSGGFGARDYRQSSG
Strand | 4-mer enrichment
UCCA | 0.758 fold
GUGG | 1.4 fold
ACGG | 0.849 fold
GCCG | 0.787 fold
UCAU | 0.72 fold
ACAC | 0.716 fold
CAGU | 0.782 fold
GUUU | 1.09 fold

Set 2 — read-out: cell-free assay; method: competition with immobilised ligand; tested at: 1 µM
Compound: CCC(=O)N[C@H]1CC[C@@H](C(=O)N(C)c2ccc(-c3nc4ccccc4o3)cc2)C1
target | remaining binding [%]
FRK (Homo sapiens, UniProt P42685) | 100
KIT (Homo sapiens, UniProt P10721, A829P) | 57
FLT3 (Homo sapiens, UniProt P36888, D835Y) | 100
PRPF4B (Homo sapiens, UniProt Q13523) | 99
LCK (Homo sapiens, UniProt P06239) | 89
EPHA6 (Homo sapiens, UniProt Q9UF33) | 76
STK17B (Homo sapiens, UniProt O94768) | 84
MAPK8 (Homo sapiens, UniProt P45983) | 58

Set 3 — Compound: O=C1NC(=O)/C(=C/c2ccc3nccnc3c2)S1; read-out: enzyme activity; action: inhibitor; tested at: 0.5 µM; baseline: control
target | remaining activity [%]
FES (Homo sapiens, UniProt P07332) | 96.4
Cyclin-dependent kinase 5, with p35 (CDK5, Homo sapiens, UniProt Q00535) | 97.9
CSNK1E (Homo sapiens, UniProt P49674) | 92.3
RPS6KA3 (Homo sapiens, UniProt P51812) | 101
JAK1 (Homo sapiens, UniProt P23458) | 103
BRSK2 (Homo sapiens, UniProt Q8IWQ3) | 90.9
TEC (Homo sapiens, UniProt P42680) | 117
PAK6 (Homo sapiens, UniProt Q9NQU5) | 107
PAK5 (Homo sapiens, UniProt Q9P286) | 97.4
IGF1R (Homo sapiens, UniProt P08069) | 92
MARK1 (Homo sapiens, UniProt Q9P0L2) | 96.2
ERBB2 (Homo sapiens, UniProt P04626) | 107
JAK2 (Homo sapiens, UniProt O60674) | 97.4
EPHB3 (Homo sapiens, UniProt P54753) | 94.5

Single results of other studies — matrix: hydrocarbon/water
Compound | logD
CCOC(=O)[C@@H]1CSCC(=O)N[C@H](CC)C(=O)N(CC(C)C)CC(=O)N[C@@H](CC(C)C)C(=O)N(C)[C@H](C)C(=O)N(C)[C@@H](C)C(=O)N[C@H](CC(C)C)C(=O)N(C)[C@H](C)C(=O)N[C@@H](CC(C)C)C(=O)N1C | 1.51
CCOC(=O)[C@@H]1CSCC(=O)N[C@H](CC)C(=O)N(C)[C@@H](C)C(=O)N[C@H](CC(C)C)C(=O)N2CCC[C@H]2C(=O)N(CC(C)C)CC(=O)N[C@H](CC(C)C)C(=O)N(C)[C@@H](C)C(=O)N[C@@H](CC(C)C)C(=O)N1C | 2.02

Some of these lines once more (set 1):
Strand | 4-mer enrichment
GUGG | 1.4 fold
ACGG | 0.849 fold
GCCG | 0.787 fold
UCAU | 0.72 fold
ACAC | 0.716 fold
